{"data": "Assay results from different studies", "note": "Numbered parts are unrelated; each lists some results of a single study. Several values in a cell are separate wells, animals, samples, runs or records. Changes are numbered by the printed parent chain."}
{"data": "Block 1", "Structure (SMILES)": "CN(C(=O)c1ccn2ncc(-c3ccc(C(N)=O)cc3)c2c1)c1ccc(C#N)cn1", "organism": "Cryptosporidium parvum", "method": "time-kill", "cell line": "HCT-8", "strain": "nanoluciferase-expressing", "relative to": "DMSO control"}
{"concentration": "0.00914 µM", "time": "0 h", "luminescence remaining": "91.4% and 98% and 90.3% and 103% and 90.1% and 97.4% and 91.2% and 99.4%"}
{"concentration": "0.00305 µM", "time": "24 h", "luminescence remaining": "92.1% and 98.6%"}
{"concentration": "0.7407 µM", "time": "72 h", "luminescence remaining": "8.67% and 9.14%"}
{"concentration": "0.7407 µM", "time": "8 h", "luminescence remaining": "112% and 122%"}
{"concentration": "0.00305 µM", "time": "0 h", "luminescence remaining": "98% and 90.3% and 97.4% and 90.1% and 99.4% and 91.4% and 91.2% and 103%"}
{"concentration": "6.667 µM", "time": "4 h", "luminescence remaining": "107% and 113%"}
{"concentration": "2.222 µM", "time": "8 h", "luminescence remaining": "105% and 108%"}
{"concentration": "0.2469 µM", "time": "48 h", "luminescence remaining": "10.4% and 11.3%"}
{"data": "Block 2", "target": "DNA polymerase theta, ATPase domain (POLQ, Homo sapiens, UniProt O75417)", "observed": "enzyme activity", "mode": "inhibitor", "concentration": "77 µM", "relative to": "untreated", "chain of UniProt O75417 (whole entry, unmodified, looked up)": "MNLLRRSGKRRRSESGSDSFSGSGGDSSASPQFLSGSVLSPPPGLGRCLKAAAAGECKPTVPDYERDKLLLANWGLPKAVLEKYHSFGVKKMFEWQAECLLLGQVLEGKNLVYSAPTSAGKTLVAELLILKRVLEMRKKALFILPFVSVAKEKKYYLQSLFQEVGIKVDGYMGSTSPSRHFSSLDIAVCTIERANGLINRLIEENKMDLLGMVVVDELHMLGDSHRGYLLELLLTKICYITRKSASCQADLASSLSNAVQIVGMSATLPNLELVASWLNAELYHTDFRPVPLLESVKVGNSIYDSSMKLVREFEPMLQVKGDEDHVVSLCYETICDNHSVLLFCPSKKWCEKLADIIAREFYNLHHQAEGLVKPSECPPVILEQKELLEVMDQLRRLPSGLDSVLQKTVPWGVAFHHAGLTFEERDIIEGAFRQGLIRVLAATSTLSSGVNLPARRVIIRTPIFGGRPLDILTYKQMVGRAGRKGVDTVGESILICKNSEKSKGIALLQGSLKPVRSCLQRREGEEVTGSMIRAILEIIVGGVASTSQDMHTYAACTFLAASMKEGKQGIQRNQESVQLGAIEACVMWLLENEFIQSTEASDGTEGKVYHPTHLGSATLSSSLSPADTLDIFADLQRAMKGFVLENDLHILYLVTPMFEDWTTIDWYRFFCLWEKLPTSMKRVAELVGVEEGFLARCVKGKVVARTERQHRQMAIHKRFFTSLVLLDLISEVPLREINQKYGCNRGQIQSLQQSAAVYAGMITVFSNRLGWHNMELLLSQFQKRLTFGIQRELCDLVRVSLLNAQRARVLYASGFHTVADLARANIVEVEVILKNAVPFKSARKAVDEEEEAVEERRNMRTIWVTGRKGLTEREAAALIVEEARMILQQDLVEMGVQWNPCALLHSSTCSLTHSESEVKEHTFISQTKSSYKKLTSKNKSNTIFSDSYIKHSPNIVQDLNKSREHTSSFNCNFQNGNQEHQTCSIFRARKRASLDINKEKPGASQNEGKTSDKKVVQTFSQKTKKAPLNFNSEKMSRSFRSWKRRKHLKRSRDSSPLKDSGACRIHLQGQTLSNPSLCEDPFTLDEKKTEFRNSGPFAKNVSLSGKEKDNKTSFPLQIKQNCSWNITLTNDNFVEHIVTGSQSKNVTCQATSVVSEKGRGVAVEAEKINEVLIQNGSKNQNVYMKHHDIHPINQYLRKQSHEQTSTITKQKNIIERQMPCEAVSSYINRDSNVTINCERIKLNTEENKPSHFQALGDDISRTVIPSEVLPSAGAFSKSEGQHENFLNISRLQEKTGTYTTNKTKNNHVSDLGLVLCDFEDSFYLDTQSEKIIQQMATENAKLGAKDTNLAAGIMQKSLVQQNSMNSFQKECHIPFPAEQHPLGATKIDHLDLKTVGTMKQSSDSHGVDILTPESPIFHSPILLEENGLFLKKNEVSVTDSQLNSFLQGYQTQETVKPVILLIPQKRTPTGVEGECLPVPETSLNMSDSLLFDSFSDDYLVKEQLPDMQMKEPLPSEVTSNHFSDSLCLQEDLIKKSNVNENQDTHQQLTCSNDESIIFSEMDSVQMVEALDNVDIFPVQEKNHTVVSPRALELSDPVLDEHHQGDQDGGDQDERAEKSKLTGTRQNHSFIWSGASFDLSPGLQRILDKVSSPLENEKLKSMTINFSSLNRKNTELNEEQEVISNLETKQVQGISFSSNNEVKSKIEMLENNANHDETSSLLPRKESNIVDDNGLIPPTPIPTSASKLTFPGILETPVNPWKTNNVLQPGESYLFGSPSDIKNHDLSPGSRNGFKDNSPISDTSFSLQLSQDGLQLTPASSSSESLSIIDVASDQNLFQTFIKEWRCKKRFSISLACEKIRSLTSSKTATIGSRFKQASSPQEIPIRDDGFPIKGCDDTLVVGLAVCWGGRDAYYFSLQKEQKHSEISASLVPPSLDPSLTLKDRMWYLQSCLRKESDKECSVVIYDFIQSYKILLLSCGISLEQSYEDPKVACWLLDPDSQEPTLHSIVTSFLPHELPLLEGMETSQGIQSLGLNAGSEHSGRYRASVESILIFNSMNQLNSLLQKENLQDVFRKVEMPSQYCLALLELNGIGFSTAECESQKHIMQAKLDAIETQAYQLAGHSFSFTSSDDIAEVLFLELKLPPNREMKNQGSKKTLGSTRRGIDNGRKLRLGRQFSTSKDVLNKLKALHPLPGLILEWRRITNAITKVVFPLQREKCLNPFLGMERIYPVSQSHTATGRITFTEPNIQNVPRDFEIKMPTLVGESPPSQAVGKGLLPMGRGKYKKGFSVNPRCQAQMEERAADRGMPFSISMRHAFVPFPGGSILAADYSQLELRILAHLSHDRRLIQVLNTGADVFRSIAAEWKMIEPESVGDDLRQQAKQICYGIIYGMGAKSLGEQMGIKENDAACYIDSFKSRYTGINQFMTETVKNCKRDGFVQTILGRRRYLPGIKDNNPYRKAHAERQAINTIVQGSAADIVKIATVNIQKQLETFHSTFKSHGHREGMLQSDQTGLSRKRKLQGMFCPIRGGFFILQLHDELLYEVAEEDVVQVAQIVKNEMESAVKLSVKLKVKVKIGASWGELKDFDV"}
{"Compound": "CCN(CC)C(=O)/C(C#N)=C/c1cc(O)c(O)c([N+](=O)[O-])c1", "remaining activity": "96.2%"}
{"Compound": "CCOC(=O)OC(C)OC1=C(C(=O)Nc2ccccn2)N(C)S(=O)(=O)c2ccccc21 (stereo not shown)", "remaining activity": "95.1%"}
{"Compound": "Nc1ccc(C(=O)O)c(O)c1", "remaining activity": "95.6%"}
{"Compound": "C=CC(=O)Nc1ccc2ncnc(Nc3cccc(Br)c3)c2c1", "remaining activity": "114%"}
{"Compound": "Cc1ccc(-n2nc(C(C)(C)C)cc2NC(=O)Nc2ccc(OCCN3CCOCC3)c3ccccc23)cc1", "remaining activity": "98.2%"}
{"Compound": "CCc1cc(Nc2nccc(-c3c(-c4ccc(OC)c(C(=O)Nc5c(F)cccc5F)c4)nc4ccccn34)n2)c(OC)cc1N1CCC(N2CCN(S(C)(=O)=O)CC2)CC1", "remaining activity": "101%"}
{"Compound": "Nc1nc2ccc(Cl)cc2c2nc(-c3ccco3)nn12", "remaining activity": "102%"}
{"Compound": "Nn1nnc2ccccc21", "remaining activity": "101%"}
{"data": "Mixed results", "HTR2C": "5-hydroxytryptamine receptor 2C (HTR2C, Homo sapiens, UniProt P28335)", "P1": "PafA, mature enzyme, eGFP fusion (Elizabethkingia meningoseptica, UniProt Q9KJX5); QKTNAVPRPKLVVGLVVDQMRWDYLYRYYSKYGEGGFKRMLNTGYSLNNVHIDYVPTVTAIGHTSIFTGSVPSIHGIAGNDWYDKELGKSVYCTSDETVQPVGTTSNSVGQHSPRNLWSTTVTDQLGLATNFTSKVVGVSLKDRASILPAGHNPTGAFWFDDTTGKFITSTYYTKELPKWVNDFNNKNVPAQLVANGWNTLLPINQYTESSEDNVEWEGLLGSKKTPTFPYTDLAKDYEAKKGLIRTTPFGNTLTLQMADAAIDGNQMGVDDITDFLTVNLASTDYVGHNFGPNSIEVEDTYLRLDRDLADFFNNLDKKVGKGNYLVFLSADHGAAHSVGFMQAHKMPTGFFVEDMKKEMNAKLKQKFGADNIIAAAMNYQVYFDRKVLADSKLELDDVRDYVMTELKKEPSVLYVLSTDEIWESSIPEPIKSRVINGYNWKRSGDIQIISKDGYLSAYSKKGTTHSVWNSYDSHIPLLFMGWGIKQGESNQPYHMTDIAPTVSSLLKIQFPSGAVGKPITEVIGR", "chain of UniProt P28335 (whole entry, looked up)": "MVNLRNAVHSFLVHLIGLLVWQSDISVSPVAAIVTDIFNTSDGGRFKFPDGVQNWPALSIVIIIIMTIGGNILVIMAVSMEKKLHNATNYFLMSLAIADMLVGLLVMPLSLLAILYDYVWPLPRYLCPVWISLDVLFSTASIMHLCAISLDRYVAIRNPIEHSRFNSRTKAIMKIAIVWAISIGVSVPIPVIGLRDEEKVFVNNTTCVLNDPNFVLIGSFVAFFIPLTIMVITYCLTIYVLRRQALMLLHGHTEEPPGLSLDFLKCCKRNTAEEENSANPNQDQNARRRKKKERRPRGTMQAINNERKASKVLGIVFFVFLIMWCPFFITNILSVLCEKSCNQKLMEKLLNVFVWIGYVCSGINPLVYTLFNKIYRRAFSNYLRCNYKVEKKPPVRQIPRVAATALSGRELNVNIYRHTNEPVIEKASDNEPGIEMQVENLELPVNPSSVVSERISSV"}
{"Substance": "COCCOc1nc(-c2ccc(Cl)nc2)nc2c1CN(C(=O)c1ncn3ccccc13)CC2", "target": "HTR2C", "assay": "ligand displacement", "conditions": "10 µM", "measurement": "inhibition", "result": "13.3%"}
{"Substance": "P1 I74V", "target": "vanadate, free oxyanion", "assay": "microfluidic competitive inhibition", "system": "in vitro, cell-free expressed", "conditions": "not given, derived from inhibition constants, unchanged parent 676 nM", "how to read": "lower = stronger binding", "measurement": "oxyanion analog dissociation constant", "result": "699 nM"}
{"Substance": "O=C(NNS(=O)(=O)c1ccccc1)c1cc(-c2ccnnc2)ccc1F", "target": "HTR2C", "assay": "ligand displacement", "conditions": "10 µM", "measurement": "inhibition", "result": "7.81%"}
